# Measured values of several laboratories.
# A part holds a random share of what one study measured. Positions count from the first letter of the parent shown.

# Set 1 — technique: protein binding microarray; form: double-stranded DNA, one strand shown; sample: in vitro; tested at: not given; relative to: not given; direction: higher = stronger binding
# Target: Histone acetyltransferase KAT6A, winged helix 1, GST fusion (KAT6A, Homo sapiens, UniProt Q92794, residues 1-85)
# Setting: 8-mer, flanks averaged, mean of 2 arrays, mostly near background
# Construct (chain): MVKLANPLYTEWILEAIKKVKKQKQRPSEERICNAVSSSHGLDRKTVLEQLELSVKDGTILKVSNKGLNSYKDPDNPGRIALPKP
Oligonucleotide,E-score
CAACTAGC,-0.0132
CCTAGAAC,-0.0867
AACTGTAT,-0.0752
ACACTGAA,-0.212
AAAGAGTC,-0.0247
GACCTGGA,-0.152
ATGAGGGA,-0.148
CCAACAGC,-0.0747
CACAGTGC,0.0874
CGAGCCAG,-0.141
CCCTGGTC,-0.0334
AGATAACG,0.0234
ATAAACTG,-0.0623
GCCCCTCC,0.0574
TCAATCCA,-0.269
AATATAAC,-0.166
AATAGCAA,-0.227
AAAATATC,-0.127
AACCCATG,-0.151
CGTGGGAC,0.0786
CGAGGATC,-0.102
CAACATTC,-0.0756
CGTTCGAG,0.0305
AGCATAAA,-0.118
CTTTCCCA,-0.229

# Set 2 — technique: RNA Bind-n-Seq; form: RNA; sample: in vitro; tested at: not given; relative to: input RNA pool; direction: higher = stronger binding
# Target: RING finger protein unkempt homolog, zinc fingers 1-6, GST-SBP tag (UNK, Homo sapiens, UniProt Q9C0B0, residues 30-357)
# Sequence of UniProt Q9C0B0 (30-357, looked up): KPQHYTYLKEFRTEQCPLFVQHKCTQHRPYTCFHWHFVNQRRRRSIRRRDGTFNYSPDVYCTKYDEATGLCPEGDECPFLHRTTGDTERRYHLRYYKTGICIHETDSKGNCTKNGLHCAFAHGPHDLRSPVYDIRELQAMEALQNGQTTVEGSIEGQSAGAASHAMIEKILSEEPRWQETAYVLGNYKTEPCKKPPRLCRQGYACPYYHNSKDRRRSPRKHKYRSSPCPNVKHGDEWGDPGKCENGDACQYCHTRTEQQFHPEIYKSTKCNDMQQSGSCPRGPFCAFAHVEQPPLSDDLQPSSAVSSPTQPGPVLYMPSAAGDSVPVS
# Setting: RNA with constant flanks, human-mouse chimeric sites, ends assumed
# Shared flanks, not repeated: GGGAGUUCUACAGUCCGACGAUC … CAACAGAGGAUUGAGCAUCA
Oligonucleotide,bound/input enrichment
AACAGAUUGUCUUUAAGCAUUCCAAGCGAGAAUGCUGAAAUAGUCAUUGUUGCCCAUGUGCCUUCUGACUGAGCUUUAAUGCUGUUCAUCCUUGAUGCUUUCCUUCACUCCAGAAUUGUU,0.186 ratio
UACAUUUUAUUGUUGAGGUUUGUAUUUAUAUAUUCUUGUAGUGUCUGCUUGCCUGUGACUUCUGGUAAAAUAAAAUAAGCCUUUGAAAAUAUUUUAGCAUGGUAUUUAACAUUUUCUAAA,2 ratio
AAAGAGUGGAUAGAGUGUGCACACGGGAUCGGUGGGACCCGGGCGAAAAAGGAGUGCAAGAUAGAAUUCGAUGACUUCGUAGAGUGUUUGCUUCGGUACAAAACGAUGAGGCGAAUGCAU,0.364 ratio
AAAGAGAAACUAAAGCAACUAAUAGAGGAAGAGGAUUGCAAAGAGAAAUUUCAUAGAAAACUAGGAUUUAUUAGCAAACAUGAGUUAUAUUCCAGAGCGUCUCAGAAACCCCAGCCAAAC,9 ratio
CUGUGACCACAAGAUCCUACCUGAGUGUUCAGAUGGGUUGACUCCCUCUCCUUGCCUGCCUAGUUUCCCACUGCCCCCCCAUCCCCCAGUGUCGGCUGAGAUGUUGCCUCUGCACGGUUC,1.31 ratio
GCUCUUGGCAAUGUAAUCAGCGCCUUGGGGGACAAGAGCAAGAGAGCCACCCAUGUCCCUUACAGAGACUCUAAGCUGACAAGACUCUUGCAGGAUUCCCUUGGGGGUAACAGCCAAACC,0.146 ratio
CGGAAGUUCUUGAUUUAUCAUUUUUCUCUUUUCUUUCUUUCCUUUAGGAAAAGCCUAAAGAUUAGGUUGUAAGAAAAACAGAAGCCAUGUUUCGAAGGAAGACCUGUCAGGUAUUUCGUC,0.135 ratio

# Set 3 — target: CCNA1, cyclin fold, Cln2 fusion (human); technique: yeast growth competition, sequencing; sample: yeast; setting: weak parent motif; relative to: not given; direction: higher = stronger binding
# Starting sequence: RB1 docking peptide (human); PKPLKKLRFDIEG; partner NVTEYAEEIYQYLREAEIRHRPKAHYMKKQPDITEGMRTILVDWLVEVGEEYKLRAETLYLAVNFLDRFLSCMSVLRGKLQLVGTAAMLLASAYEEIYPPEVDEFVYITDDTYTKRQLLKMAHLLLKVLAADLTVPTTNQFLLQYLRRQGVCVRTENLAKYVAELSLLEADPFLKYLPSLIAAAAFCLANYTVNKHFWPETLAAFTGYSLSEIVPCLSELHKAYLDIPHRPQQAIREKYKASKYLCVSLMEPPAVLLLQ
Change,normalised enrichment score
PKPLKKLREDIEG [F9E],0.00196
PKPLKKLRFKIEG [D10K],0.341
CKPLKKLRFDIEG [P1C],0.958
PKPLKKLRFVIEG [D10V],0.282
PKPLLKLRFDIEG [K5L],0.0221
PKPLFKLRFDIEG [K5F],-0.0129
PKPLKKLRFDIMG [E12M],0.27
PKPLKKLRWDIEG [F9W],0.234
PNPLKKLRFDIEG [K2N],-0.0496
PKPLKKLRFDKEG [I11K],0.201
PKPLKKLRFDIAG [E12A],-0.0559
PKPLYKLRFDIEG [K5Y],0.386
PKPLKKLRFYIEG [D10Y],-0.15
PKPLKKLRFDVEG [I11V],0.217
PKPLKKLRFDSEG [I11S],0.445
PKPLMKLRFDIEG [K5M],0.0774
PKPLKKLRDDIEG [F9D],0.299
PKPLKWLRFDIEG [K6W],0.233
PKPLKRLRFDIEG [K6R],0.358
PKPLKKLRYDIEG [F9Y],-0.0724
PKPLKKVRFDIEG [L7V],0.248
PKPLKKLRFDIWG [E12W],0.268
DKPLKKLRFDIEG [P1D],0.549
PDPLKKLRFDIEG [K2D],-0.0019

# Set 4 — target: UBE2R2 UBC core domain (UniProt Q712K3); technique: yeast two-hybrid; sample: yeast; setting: mostly zero background; relative to: not given; direction: higher = stronger interaction
# B1: RNF6 RING domain (UniProt Q9Y252); chain NSIDSELGKICSVCISDYVTGNKLRQLPCMHEFHIHCIDRWLSENCTCPICRQPVLGSNIAN
# B2: VPS8 RING domain (UniProt Q8N3P4); chain TRGLNPKQDYCSICLQQYKRRQEMADEIIVFSCGHLYHSFCLQNKECTVEFEGQTRWTCYKCSSSNKVGKLSE
# B3: CNOT4 RING domain (UniProt O95628); chain MSRSPDAKEDPVECPLCMEPLEIDDINFFPCTCGYQICRFCWHRIRTDENGLCPACRKPYPED
# B4: MKRN3 RING domain (UniProt Q13064); chain FAVQRGMDKVCGICMEVVYEKANPNDRRFGILSNCNHSFCIRCIRRWRSARQFENRIVKSCPQCRVTSELVIPSE
# B5: RNF186 RING domain (UniProt Q9NXI6); chain HSGSTECDLECLVCREPYSCPRLPKLLACQHAFCAICLKLLLCVQDNTWSITCPLCRKVTAVPGGLI
# B6: RNF182 RING domain (UniProt Q8N6D2); chain AESQASDELECKICYNRYNLKQRKPKVLECCHRVCAKCLYKIIDFGDSPQGVIVCPFCRFETCLPDDEV
# B7: HLTF RING domain (UniProt Q14527); chain LILSSGSDEECAICLDSLTVPVITHCAHVFCKPCICQVIQNEQPHAKCPLCRNDIHEDNLLE
# Residues (chain): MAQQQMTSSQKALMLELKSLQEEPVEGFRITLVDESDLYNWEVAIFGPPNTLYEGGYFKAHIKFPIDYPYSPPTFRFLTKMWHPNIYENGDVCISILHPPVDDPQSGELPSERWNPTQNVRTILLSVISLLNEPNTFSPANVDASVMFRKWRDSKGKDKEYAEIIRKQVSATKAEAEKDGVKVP
Sequence,lacZ reporter activity
B1 (RNF6 RING domain),0
B2 (VPS8 RING domain),0
B3 (CNOT4 RING domain),0
B4 (MKRN3 RING domain),0
B5 (RNF186 RING domain),0
B6 (RNF182 RING domain),0
ASEEEFQFLRCQQCQAEAKCPKLLPCLHTLCSGCLEASGMQCPICQAPWPLGADTP (PML RING domain (UniProt P29590)),0
B7 (HLTF RING domain),0
LEALSSDFLACKICLEQLRAPKTLPCLHTYCQDCLAQLADGGRVRCPECRETVPVPPEGV (TRIM56 RING domain (UniProt Q9BRZ2)),0

# Set 5 — technique: universal PBM; form: double-stranded DNA, one strand shown; sample: in vitro; tested at: 600 nM; direction: higher = stronger binding
# Target: Sal-like protein 4, full length isoform A (SALL4, Homo sapiens, UniProt Q9UJQ4, residues 1-1053)
# Sequence of UniProt Q9UJQ4 (whole entry, looked up): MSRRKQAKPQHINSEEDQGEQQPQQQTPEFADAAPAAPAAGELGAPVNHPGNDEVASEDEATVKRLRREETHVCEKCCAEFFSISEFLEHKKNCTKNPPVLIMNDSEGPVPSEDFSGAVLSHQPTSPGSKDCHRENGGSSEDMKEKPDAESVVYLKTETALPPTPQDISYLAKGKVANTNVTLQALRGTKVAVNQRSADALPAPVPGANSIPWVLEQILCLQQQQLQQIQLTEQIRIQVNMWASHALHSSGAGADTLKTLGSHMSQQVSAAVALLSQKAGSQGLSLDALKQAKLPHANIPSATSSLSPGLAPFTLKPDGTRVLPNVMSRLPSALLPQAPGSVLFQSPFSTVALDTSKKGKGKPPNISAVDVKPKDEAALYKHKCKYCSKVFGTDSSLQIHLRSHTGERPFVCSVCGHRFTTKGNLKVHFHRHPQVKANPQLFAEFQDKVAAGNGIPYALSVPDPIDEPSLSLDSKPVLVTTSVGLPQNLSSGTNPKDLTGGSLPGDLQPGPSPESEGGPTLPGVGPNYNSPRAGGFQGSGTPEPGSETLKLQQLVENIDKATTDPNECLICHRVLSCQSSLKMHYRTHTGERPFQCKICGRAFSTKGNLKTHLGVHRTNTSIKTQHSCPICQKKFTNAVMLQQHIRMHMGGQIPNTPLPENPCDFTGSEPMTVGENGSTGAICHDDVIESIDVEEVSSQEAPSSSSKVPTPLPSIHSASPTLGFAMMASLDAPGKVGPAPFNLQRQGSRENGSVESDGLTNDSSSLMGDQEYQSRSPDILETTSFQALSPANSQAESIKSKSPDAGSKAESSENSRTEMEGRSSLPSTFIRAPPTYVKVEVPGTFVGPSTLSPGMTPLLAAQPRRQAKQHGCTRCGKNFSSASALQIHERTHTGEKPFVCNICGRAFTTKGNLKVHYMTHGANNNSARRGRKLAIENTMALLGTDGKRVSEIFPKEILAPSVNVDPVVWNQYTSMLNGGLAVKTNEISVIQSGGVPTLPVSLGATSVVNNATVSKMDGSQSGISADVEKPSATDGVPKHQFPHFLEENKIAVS
# Setting: 8-mer, flanks averaged, mean of replicates
Oligonucleotide,E-score
GGTAGAAA,-0.0436
CTACTGCA,0.0278
CCCGAACC,-0.346
GGTGAATA,0.0962
GGGGTGCA,-0.276
ATCCTGGA,-0.0834
CATCCGCA,-0.0263
CCTACAGG,-0.238
CGTAGGTA,-0.126
GATTAGGC,-0.0795
ACGTTGTC,-0.108
CGGGCCCC,-0.437
ACTTATGA,0.33
TAGCTGGA,-0.00374
CACAGACG,-0.122
AAGTCCCC,-0.217
CGGACACG,-0.283
CCAATTCG,-0.0128
AGGAACCG,-0.198
ATCATCCA,0.0952
AGCAGTAA,0.079
AATCAACC,-0.0347
AGCATGGA,-0.0685
GTGAGTCA,-0.0833
AACTCGAG,-0.0544

# Set 6 — technique: competition protein-binding microarray; form: double-stranded DNA, one strand shown; sample: in vitro; tested at: 2 µM; with: Pho4 competitor, 0.05 µM; direction: higher = stronger binding; shared flanks, not repeated: … GTCTTGATTCGCTTGACGCTGCTG
# Target: Centromere-binding protein 1, full length, His-tagged (CBF1, Saccharomyces cerevisiae, UniProt P17106, residues 1-351)
# Sequence of UniProt P17106 (whole entry, looked up): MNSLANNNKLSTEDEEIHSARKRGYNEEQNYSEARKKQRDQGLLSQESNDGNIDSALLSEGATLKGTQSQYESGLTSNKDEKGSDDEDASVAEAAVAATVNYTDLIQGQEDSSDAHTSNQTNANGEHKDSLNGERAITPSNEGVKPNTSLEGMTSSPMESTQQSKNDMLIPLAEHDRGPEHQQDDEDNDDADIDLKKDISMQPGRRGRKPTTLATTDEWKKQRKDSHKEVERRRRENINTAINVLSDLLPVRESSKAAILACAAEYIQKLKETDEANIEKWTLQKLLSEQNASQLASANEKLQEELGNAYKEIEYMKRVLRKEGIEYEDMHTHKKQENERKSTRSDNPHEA
# Setting: whole 60-bp probe, lowest competitor level
Oligonucleotide,fluorescence intensity [a.u.]
AAAAGCAACTCGACCGTCGTGGGTACAAACCCCACC,63
AAATTACTAAGTTGAATGGTGGGTGACGCCGTATGA,59.2
CTAACGAAGGTTTGCATGGTGGGTGACAAGCCAAGT,67.5
CTTCTGTAAATTTTTCACGTGTACTGACGCGCCCCG,800
GGCAAATATAACGGCCACGTGCCGAGGGGTTTCTCT,1650
TAACAACAGGACCATCACGTGAAACTTCGACGGCTT,1650
CATGGGGTTTATCCACTCGTGTCCTTGGTTTCATGG,91.5
ACCTATAACAAGCATCACAGCATATCAATGGGCGGT,78.3
CTAACGAAGGTTTGTCACACAACTTACAAGCCAAGT,93
GAGCGAGACTGCCAACACGTGCACACTCCGTCCAGA,1240
CTAACGAAGGTTTGAGCTGTGGGTGACAAGCCAAGT,68.3
CCCGGGGCGTCGGCGCACGCGGTCCCCACCGGCCGG,43.4
GGGTGTGCATCTGGGCATGATCTACCAAGAGGACAG,73.4
TAATTAAGGCAATGCCAGGTGATAAAGTTAAGGTTC,101
ATGCCCTATTAAAAATTCGTGGGACTATGATAATTT,77.3
GGGTTAAAACTTCACCACGTTTGTAGCGGAGCAATG,97.7
AAATTACTAAGTTCCCACGTGTTTTACCCCGTATGA,925
GCTAATGTAATATAATCCGTGATGGTTTAATGGTCA,113

# A few entries again (set 1):
Oligonucleotide,E-score
ACACTGAA,-0.212
CGTTCGAG,0.0305
AACCCATG,-0.151
AATAGCAA,-0.227
CCAACAGC,-0.0747
GACCTGGA,-0.152
ATAAACTG,-0.0623
CGTGGGAC,0.0786
GCCCCTCC,0.0574
CCCTGGTC,-0.0334
ATGAGGGA,-0.148
CACAGTGC,0.0874
AGCATAAA,-0.118
AATATAAC,-0.166
CTTTCCCA,-0.229
CCTAGAAC,-0.0867
AGATAACG,0.0234
CGAGGATC,-0.102
